Published values from different studies.
Each line is one published result; not all experiments were run side by side. Several values in a cell are separate wells, animals, samples, runs or records. ± gives the spread as reported. Converted amounts (≈) assume the structure as drawn.

SMILES | test | test system | setting | scale | measurement | result
CC(C)[C@H](O)C(=O)N[C@H]1Cc2ccc3c(c2)[C@]2(C4=C(c5nc(CO)co5)N=C(O4)[C@H](C(C)(C)C)NC1=O)c1cc(F)ccc1N[C@@H]2O3 | – | NSG mice, female, MDA-MB-231-BrM2 xenograft, mammary fat pad | intravenous, 10 mg/kg, single MTD dose, added: paclitaxel 40 mg/kg | – | AUC(0-t) | 34500 ng·h/mL
Clc1ccc(Cl)c(-c2cc(Cl)ccc2Cl)c1 | – | Sprague Dawley rat female, serum | intraperitoneal, 100 mg/kg, 3 weeks | – | concentration | 15 ng/g
Cc1ccc(F)c2cc(C(=O)N[C@@H]3CCC[C@H](N4CC[C@H](N(C)S(C)(=O)=O)C4)C3)[nH]c12 | – | CD1 mouse | oral, 100 mg/kg | – | MRT(0-inf) | 4.2 h
CN(C(=O)n1cnc(-c2ccc[n+]([O-])c2)c1)C1CCCCC1 | – | Wistar rat, midbrain | oral, 10 mg/kg, 4 h, single dose | – | concentration | 117 ± 36.9 ng/g
CCCCCCCCCCCCCCCC(=O)N[C@@H](CCC(=O)NCCCC[C@H](NC(=O)[C@H](CC(=O)O)NC(=O)[C@H](CO)NC(=O)[C@@H](NC(=O)[C@H](Cc1ccccc1)NC(=O)[C@@H](NC(=O)CNC(=O)[C@H](CCC(N)=O)NC(=O)[C@H](CO)NC(=O)[C@@H](N)Cc1c[nH]cn1)[C@@H](C)O)[C@@H](C)O)C(=O)N[C@@H](CO)C(=O)N[C@@H](CCC(=O)O)C(=O)N[C@@H](Cc1ccc(O)cc1)C(=O)N[C@@H](CC(C)C)C(=O)N[C@@H](CC(=O)O)C(=O)N[C@@H](CO)C(=O)N[C@@H](CCC(=O)O)C(=O)N[C@@H](CCCNC(=N)N)C(=O)N[C@@H](C)C(=O)N[C@@H](CCCNC(=N)N)C(=O)N[C@@H](CC(=O)O)C(=O)N[C@@H](Cc1ccccc1)C(=O)N[C@H](C(=O)N[C@@H](C)C(=O)N[C@@H](Cc1c[nH]c2ccccc12)C(=O)N[C@@H](CC(C)C)C(=O)N[C@@H](CCC(=O)O)C(=O)N[C@@H](C)C(=O)NCC(=O)NCC(=O)O)C(C)C)C(=O)O | – | human, CrCl ≥ 90 mL/min | sc, 100 µg single dose | – | treatment-related adverse events | 50%
CC(=O)c1c(C)c2cnc(Nc3ccc(C4CCN(CCS(C)(=O)=O)CC4)cn3)nc2n(C2CCCC2)c1=O | – | HR+/HER2- advanced breast cancer patients | oral, 100 mg twice daily, all grades,, monotherapy | – | patients with GGT increased | 6.7%
O=S(=O)(Nc1ccccc1)c1ccc(NC(=S)Nc2ccccc2)cc1 | refers to: MO% | male mouse, blood | oral, 80 mg/kg daily, 14 days | – | blood cell fraction | 4.4%
NC(=O)[C@H]1CCN(c2ncnc(N)c2F)C[C@@H]1N1CCC[C@@H](Nc2cc(Cl)cc(C(F)(F)F)c2)C1=O | – | B-cell malignancy patients | oral, 41 mg twice daily, dose | – | grade ≥3 bilirubin increase | 10%
O=[N+]([O-])c1ccc2c(c1)S(=O)(=O)C=C2 | flow cytometry | male C57BL/6 mice, spleen | i.p., 10 mg/kg, 8 days | reference: CD45+ cells | CD8+ cells | 11.4%
COc1cc(Nc2ncc(F)c(Nc3ccc4c(n3)NC(=O)C(C)(C)O4)n2)cc(OC)c1OC | – | kinase assay buffer | 3 h, 0.1% DMSO | – | solubility | 41 µM (≈ 19.3 µg/mL)
N=C(N)NCCC[C@H](NC(=O)[C@H](CCCNC(=N)N)NC(=O)[C@H](CCCCN)NC(=O)[C@H](CCC(N)=O)NC(=O)[C@H](CCCCN)NC(=O)[C@H](Cc1ccc(O)cc1)NC(=O)[C@@H](N)CCCCN)C(=O)N[C@@H](CO)C(=O)N[C@@H](Cc1ccc(O)cc1)C(=O)N[C@@H](CCCCN)C(=O)O | – | human, dentin hypersensitivity patients | topical to exposed dentin, up to 10 µg/tooth | – | safety and tolerability | not toxic
COc1cccc(Oc2ccccc2NC(=O)CNC(=O)c2cccc3ccccc23)c1 | – | esterase-deficient SCID mice, male | oral, 15 mg/kg/day, 14 days, toxicity study | – | blood glucose | 205 mg/dL and 304 mg/dL and 177 mg/dL
CC/C(=C(\c1ccccc1)c1ccc(OCCN(C)C)cc1)c1ccccc1 | – | CD-1 mouse, male, plasma | intraperitoneal, 10 mg/kg | – | AUC(0-inf) | 702 ng·h/mL
CC(C)[C@@H]1NC(=O)CNC(=O)[C@H](CC(N)=O)NC(=O)[C@H](CCCNC(=N)N)NC(=O)[C@H](Cc2ccc(O)cc2)NC(=O)[C@H](C(C)C)NC(=O)[C@@H](NC(=O)[C@@H](NC(=O)[C@H](CC(N)=O)NC(=O)[C@H](Cc2c[nH]c3ccccc23)NC(=O)[C@H](C)NC(=O)[C@H](Cc2ccccc2)NC(=O)CN)C(C)C)CSSC[C@@H](C(=O)N[C@@H](Cc2cnc[nH]2)C(=O)N[C@@H](CCCNC(=N)N)C(=O)N[C@@H](CCCNC(=N)N)C(=O)N[C@@H](C)C(=O)N[C@@H](CC(N)=O)C(N)=O)NC(=O)[C@H](C(C)C)NC(=O)[C@H](CCCNC(=N)N)NC1=O | – | ICR mouse, blood | intramammary, 5 mg/kg, day 5, 3 d dosing | – | MCV | 40.7 ± 1.09 fL
CC1(C)C(/C=C(\Cl)C(F)(F)F)C1C(=O)OC(C#N)c1cccc(Oc2ccccc2)c1 (stereo not shown) | refers to: CYP3A4 | human, age 5 years | – | – | enzyme contribution to clearance | 1.2%
Fc1ccc([C@@H]2CCNC[C@H]2COc2ccc3c(c2)OCO3)cc1 | refers to: Cough | healthy volunteers | oral, dose not given, given -1 h relative to LSD, added: LSD | direction not given | List of Complaints score | 1 score
Cc1cccc(Cn2nc(C3CC3)c3c(NC(=O)c4cnc5cc(OCCN6CCN(C)CC6)ccn45)cccc32)n1 | refers to: Nausea | human advanced solid tumours | oral, 400 mg, all-causality | – | adverse events incidence | 42.9%
COc1cc2c(Oc3ccc4[nH]c(C)cc4c3F)ccnc2cc1OCC1(N)CC1 | – | paediatric refractory sarcoma patients | 12 mg | – | sinus tachycardia incidence | 18.2%
COc1ccc(-c2c(-c3ccc(C#N)c(F)c3)nc(N3CCC(N)CC3)n(C)c2=O)cc1F | refers to: Chest pain | human patients | oral, 60 mg, dose expansion | – | serious adverse event incidence | 5%

SMILES | test | test system | setting | scale | measurement | result
CCC(C)c1cc(C(C)(C)C)cc(-n2nc3ccccc3n2)c1O (stereo not shown) | – | EpiSkin reconstructed epidermis | 36 h | – | mass recovery | 70.2%
CN1CC[C@@H](c2c(O)cc(O)c3c(=O)cc(-c4ccc(C(F)(F)F)cc4Cl)oc23)[C@@H]1CO | refers to: respiratory failure | B-cell malignancies | oral, 100 mg, grade 3 to 4, intermittent dosing | – | patients with adverse event | 0%
CCC[C@@](N)(CO)CCc1ccc(OCCCCCC(C)C)cc1 | – | hound dogs, male | oral, 10 mg/kg, capsule, fed state, median | – | half-life | 17.4 h
C=CC(=O)N1CC[C@H](n2nc(C#Cc3cc(OC)cc(OC)c3)c3c(N)ncnc32)C1 | – | patients with advanced solid tumours | oral, dose not given, Hyperphosphatemia, any grade, QD, all patients | – | adverse drug reaction incidence | 100%
CC(=O)[C@H]1[C@H](C#N)C[C@H]2[C@@H]3CC=C4C[C@@H](O)CC[C@]4(C)[C@H]3CC[C@@]21C | qPCR, refers to: Cyp2c29 | wild-type mice, liver | 10 mg/kg, 3 days | reference: vehicle | mRNA level | increased
O=C1Nc2cc3[nH]nc(-c4ccncc4)c3cc2CN1Cc1ccccc1 | CTCAE v4.03 | advanced solid tumour patients | intravenous, 7.2 mg/kg | – | patients with blurred vision | 33%
C[C@]1(CO)Cc2ncn(-c3ccc(C#N)c(Cl)c3)c2C(=O)O1 | – | human, plasma | 40 mg, first dose fasted | – | half-life | 5.1 h
O=C(Nc1ccccc1)C1CCN(C(=O)Oc2cccnc2)CC1 | adverse event reporting | healthy women | oral, 60 mg, 7 days | – | subjects with Overall adverse event | 85.7%
C[C@@H]1OC(=O)NN=C1c1ccc(-c2ccc(F)cc2)c(C(F)(F)F)c1 | phase I trial, refers to: Anaemia worst grade 1 | human patients | dose not given, all dose groups | – | patients with adverse event | 20%
O=C(Nc1ccccc1)C1CCN(C(=O)Oc2cccnc2)CC1 | refers to: Asthenia | healthy female human | concentration not given, all doses pooled | – | adverse event incidence | 4%
CO[C@H]1C[C@@H]2CC[C@@H](C)[C@@](O)(O2)C(=O)C(=O)N2CCCC[C@H]2C(=O)O[C@H]([C@H](C)C[C@@H]2CC[C@@H](OC(=O)NCCOCCOCCOCCOCCOCCOCCOCCOCCC(=O)N3CCc4cc(Cn5nc(-c6ccc7oc(N)nc7c6)c6c(N)ncnc65)ccc4C3)[C@H](OC)C2)C[C@@H](O)[C@H](C)/C=C(\C)[C@@H](O)[C@@H](OC)C(=O)[C@H](C)C[C@H](C)/C=C/C=C/C=C/1C | phase 1 dose escalation | advanced solid tumour patients | intravenous, 6 mg weekly, grade ≥3 | – | deaths due to TEAEs | 0%
CC(C)C[C@H](NC(=O)[C@H](CCCCN)NC(=O)OCC1c2ccccc2-c2ccccc21)C(=O)N[C@H](C(=O)N[C@@H](Cc1ccccc1)C(=O)N[C@@H](Cc1ccccc1)C(=O)N[C@@H](CCCCN)C(=O)NCC(=O)N[C@@H](Cc1ccccc1)C(=O)N[C@@H](C)C(=O)N[C@@H](Cc1c[nH]c2ccccc12)C(=O)N[C@@H](CC(N)=O)C(=O)N[C@H](C(=O)N[C@H]1CSSC[C@@H](C(=O)N[C@@H](Cc2c[nH]cn2)C(=O)N[C@@H](CCCNC(=N)N)C(=O)N[C@@H](CCCNC(=N)N)C(=O)N[C@@H](C)C(=O)N[C@@H](CC(N)=O)C(N)=O)NC(=O)[C@H](C(C)C)NC(=O)[C@H](CCCNC(=N)N)NC(=O)[C@H](C(C)C)NC(=O)CNC(=O)[C@H](CC(N)=O)NC(=O)[C@H](CCCNC(=N)N)NC(=O)[C@H](Cc2ccc(O)cc2)NC(=O)[C@H](C(C)C)NC1=O)C(C)C)C(C)C | – | ICR mice, serum | intraductal mammary, 10 mg/kg, day 5 | – | blood urea nitrogen | 10.3 ± 0.7 mmol/L
O=C(O)CCC(CP(=O)(O)O)C(=O)O (stereo not shown) | – | rat plasma | 8 µg/mL, freeze-thaw cycle 1 at -80 °C | – | measured concentration | 7.86 ± 0.1 µg/mL
C=CCNc1c(O)cc2c(O)c1C[C@@H](C)C[C@H](OC)[C@H](O)[C@@H](C)/C=C(\C)[C@H](OC(N)=O)[C@@H](OC)/C=C\C=C(/C)C(=O)N2 | refers to: Headache | unresectable or metastatic GIST/STS | intravenous, dose not given, all doses | – | patients with TEAE | 50%
COc1ncccc1-c1cnn2ccc(N3CCN(C(=O)OC(C)C)CC3)nc12 | – | mouse nerve ligation model, brain | oral, 3 mg/kg, 30 min after last dose, repeat dosing day 1 | – | drug concentration | 2400 nM
C[C@@H](NC(=O)N1C(=O)[C@H](Cc2ccnc(N)c2)[C@H]1C(=O)O)C1CCCCC1 | – | healthy adult Chinese volunteers | continuous intravenous infusion, 0.3 mg/kg/h, 5-day infusion, CTCAE 5.0 grading | – | incidence of AEs excluding prolonged aPTT | 50%
CC(C)Nc1ccnc(Nc2cccc(-c3cccnc3)c2)n1 | refers to: BUN | mouse, blood | intraperitoneal, 5 mg/kg | – | blood chemistry | 26.7 mg/dL
O=c1ccc2ncc(=O)n3c2n1C[C@H]3CN1CCC(NCc2cc3c(cn2)OCCC3)CC1 | – | healthy human volunteers, plasma | oral, dose not given, arithmetic mean, added: itraconazole | – | AUC(0-inf) | 27200 ng·h/mL

Some of these lines once more:
SMILES | test | test system | setting | scale | measurement | result
N=C(N)NCCC[C@H](NC(=O)[C@H](CCCNC(=N)N)NC(=O)[C@H](CCCCN)NC(=O)[C@H](CCC(N)=O)NC(=O)[C@H](CCCCN)NC(=O)[C@H](Cc1ccc(O)cc1)NC(=O)[C@@H](N)CCCCN)C(=O)N[C@@H](CO)C(=O)N[C@@H](Cc1ccc(O)cc1)C(=O)N[C@@H](CCCCN)C(=O)O | – | human, dentin hypersensitivity patients | topical to exposed dentin, up to 10 µg/tooth | – | safety and tolerability | not toxic
COc1cccc(Oc2ccccc2NC(=O)CNC(=O)c2cccc3ccccc23)c1 | – | esterase-deficient SCID mice, male | oral, 15 mg/kg/day, 14 days, toxicity study | – | blood glucose | 205 mg/dL and 304 mg/dL and 177 mg/dL
